Experimental data pooled from the literature.
A part holds a random share of what one study measured. Substitutions count along the parent as printed.

Block 1
Target: RNA binding protein fox-1 homolog 2, RRM domain, GST-SBP tag (RBFOX2, Homo sapiens, UniProt O43251-10, residues 100-194)
Method: RNA Bind-n-Seq
Molecule type: RNA
Sample: in vitro
Tested at: 365 nM
Notes: natural RNA segment, single round, ends assumed
Relative to: no-protein control
Direction: higher = stronger binding
Quantity: RBNS enrichment (R)
Constant ends, left off below: GGGAGUUCUACAGUCCGACGAUC … UGGAAUUCUCGGGUGCCAA
Target sequence (chain): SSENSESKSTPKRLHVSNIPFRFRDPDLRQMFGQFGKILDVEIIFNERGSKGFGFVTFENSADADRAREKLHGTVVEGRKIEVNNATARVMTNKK
GAGUGUUCUAGUCUGAUGUAUGUGGGGUUUCCUGCCCUGUUGGACCAAAGUUUCCAUGGUCCUAUGGGAUAGCCUUCAGCCUCUGGAGACCCAGAGCUUGCCUGCCAGGG: 0.584
GCCUGAGGGCCUCCUAAAAGGUUUAAAUGUCCACGCCUCUCCAGUUGCUGAAGUAGGGUCUGAGAGAACCCUGGCAUCAGCAGACCCAGGGUGCUUCUGUCUCCUGCAGA: 0.411
GUAAACCUUGUCUGAGUAGUGUUCCGAGGUCUUGCCGUUCCGGAUCCCUCUGUCUGUUUAUGCCUGGUGUGAGUUCCAUCGGGUGUCUUUAAAUAGUUGCAGAAGGGAUA: 0.507
GCUGGGGUAAGCACUAGACCCAAGUAGACUGGACACAAAGGGCUCGCCCAGGGCCCUGGCGCCACCCCCACCCCUUCCCACCAGCUGCUGCUAGCCUCUGUGGUUGUACA: 0.675
UGGUUUCUCCAUGUUUACACUUCAAUCUGCAGGCUUCUUAAAGUGACAGUAUCCCUUAACCUGCCACCGGUUUCCACCUUUCAACCCCCUGGUCUUAUAAGGGGAGGAGA: 0.463
UGGCAGUGGGUUGGAAGAUUUCUACUGGGUCACAUGAUGUCUGGUAAUGCCAUCUUGAACUCCCUGUAAUAGUUGGAGACUGCACUUCCUGUCCCUAAAGGAAUGUGCGU: 0.7
GCAACUUAGUGGAAGGAAUUACUUCCUCCUGAGGCUACAGGCGAGAAAGGUAGGGAUGGGCCAGCCUCCCGUCUCAGCUGUUGGGAGACAGUAGGCAGGCUGAGUGGCCC: 2.42
UAAGAGUCACCAAACACGUGGAUAUUUUUGGUCUGAUCCUACAGUAGCCGGUUAUCUAGACCAGUAAGUGGAGUUUUGGACAUGCUGCUGCUGUCAACUCACUGGCUGAA: 0.447
GUGCUGUCUAAUAACGUGGUCAUUGGAAUCUAAGGAAACUAGGGUCUGUGGUUAACACCCUGGGAUAAUUGUGAUGGGCAGAUGCGCAGUAAUGGCCUGUGUUGGUAACA: 0.389
AAUAUUUGAUAAUGGUUGCACUUAUCUUCAGUGCAGGUUAGAAGAGUCUUCUCAACCAAGCUUAACUCGAGUUGUCUUCUCAGCCCUCAAAAGGCUCUUGUACAAAAUGU: 0.32
UCCCAAAGCCGAAACAAGAAAAGUCAGCAUGCCUGGGGCUAGAAGCGGAAUGUAAGAUACGUCUCUAUGCCAAAUGGAGUUGUAGAAUGUACCCUCUCAGCCCAUAAACA: 5.35
AUCUGGGAGGCUGGUCUCCCUCCAGCUGGAAUUGCUGCUCUCUGAGGGAGAGGCUGUGGUGGCUGUCUCUGUCCCUCACUGCCUUCCAGGAGCAAUUUGCACAUGUAACA: 1.24

Block 2
Target: CCND1, cyclin fold, Cln2 fusion (human)
Method: yeast growth competition, sequencing
Sample: yeast
Notes: weak parent motif
Relative to: not given
Direction: higher = stronger binding
Quantity: normalised enrichment score
Starting sequence: SGO1 docking peptide (human); PLAKRALKYTDEK
P1A: -0.239
D11A: 0.00316
K13A: -0.212
Y9A: 0.17
L7A: -0.0751

Block 3
Target: Interferon regulatory factor 5, full length, phosphomimetic (IRF5, Homo sapiens, UniProt Q13568-2, residues 1-514, K96S/S451D/S453D/S456D/S462D)
Method: protein-binding microarray
Molecule type: double-stranded DNA, one strand shown
Sample: in vitro
Tested at: 250 nM
Notes: 60-bp whole probe
Together with: salmon DNA 0.4 mg/ml
Relative to: random background probes
Direction: higher = stronger binding
Quantity: log fluorescence
Constant ends, left off below: GCCTAGCAC … GTCTTGATTCGCTTGACGCTGCTG
GACGGGATCCTTTTCCTGACGTGCTAG: -0.121 z-score
TTAGGTATCGTGTATCGGTTAGTGCTA: 4.33 z-score
GCCCCACCCACTCTGGCCCCGTGCTAG: -0.453 z-score
GACGGTTTCAGTATCGAGACGTGCTAG: 5.75 z-score
GAAGGTTTCCTTTCCCTGACGTGCTAG: 1.55 z-score
TCTGTTGCCCGTATCTAGGTGTGCTAG: 0.15 z-score
TCAGCTATGTTGTCCAGGACTGTGCTA: -0.169 z-score
TTAGGACTCGACTTTCGGTTAGTGCTA: 9.61 z-score
GACGGTATCGATTTCGGGACGTGCTAG: 5.78 z-score
TCACCTTACTTTATGTAACTGTGCTAG: 0.143 z-score
TTTGGTATCGGGTATCGGTTAGTGCTA: 8.22 z-score
GACGGACTGATTCTCCTGACGTGCTAG: -0.171 z-score
CACTATTTAAGACCTATGCACGTGCTA: 0.363 z-score
GACGGTCTCCTTATCCTAACGTGCTAG: -0.0973 z-score
GACGGTATCGGTTGCGGGACGTGCTAG: 5.87 z-score
TCAGTTACCCCTCATCAAACTGTGCTA: -0.0165 z-score
GGCGGTTTCCTTTCCCTGACGTGCTAG: 1.09 z-score
TGTTTTTCATTTTTTTTCATGTGCTAG: 2.67 z-score
GACGAACTGGGAACTGGAGACGTGCTA: -0.332 z-score
CCGGGTTTCACCATGTTGGCGTGCTAG: 1.75 z-score

Block 4
Target: Centromere-binding protein 1, full length, His-tagged (CBF1, Saccharomyces cerevisiae, UniProt P17106, residues 1-351)
UniProt P17106, sequence (whole entry, looked up): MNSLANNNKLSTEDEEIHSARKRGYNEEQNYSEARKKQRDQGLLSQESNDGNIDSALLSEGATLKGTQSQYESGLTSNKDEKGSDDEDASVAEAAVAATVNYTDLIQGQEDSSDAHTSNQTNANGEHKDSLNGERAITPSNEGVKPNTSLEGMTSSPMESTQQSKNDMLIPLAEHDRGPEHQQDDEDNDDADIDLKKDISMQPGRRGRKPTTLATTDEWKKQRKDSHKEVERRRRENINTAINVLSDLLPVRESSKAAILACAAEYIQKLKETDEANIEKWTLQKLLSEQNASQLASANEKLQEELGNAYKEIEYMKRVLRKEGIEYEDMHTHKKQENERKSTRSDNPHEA
Method: competition protein-binding microarray
Molecule type: double-stranded DNA, one strand shown
Sample: in vitro
Tested at: 2 µM
Notes: whole 60-bp probe, lowest competitor level
Together with: Pho4 competitor, 0.05 µM
Direction: higher = stronger binding
Quantity: fluorescence intensity
Constant ends, left off below: … GTCTTGATTCGCTTGACGCTGCTG
TGATAATGCAATAGCCTTTGATGACAATGTTAGTAA: 78 a.u.
CTGTGTGACCTTGGACACATGGCTCAACCTCTGTGA: 125 a.u.
GCTCGCAGGGTCAACCACGTGCTGGGGAGAGGAGCC: 1210 a.u.
ATACTGAAGATTCGAAACGTGTTTCTAAAACCAATA: 148 a.u.
CTCTGAGCACTCCATCACCTGAGTTAGGTAATACAT: 99.4 a.u.
CTTTCCCGATCTTGTCACTGAACTTTAGCACATTTG: 79.4 a.u.
CTTTCCCGATCTTGACGAGTGGGTGTAGCACATTTG: 63.5 a.u.
TCTCCTCACAATTTTCACGTGCTTTCGATCTTAGTT: 1410 a.u.
CTTTCCCGATCTTGACACGTGGGTGTAGCACATTTG: 963 a.u.
TTGAACTTGTACTTGCACATGTATCTTATTGTTTCG: 159 a.u.
TGCGCAACAACTTGGTTTGTGGGTGTATGTCTAGAA: 64.4 a.u.
AGCAAGTTTTACCATCACCTGCACAACCACAACAGC: 170 a.u.
ATGCTGCTAAAGGAACACGTGAGAAATTACATTCTC: 2160 a.u.
TGCTCCACCGGCCAACACGTGGAAGTCGCAATTATA: 448 a.u.
GTCTTGTCTCATTGCGACGTGGGTGTCCCCACTTCA: 83.2 a.u.
GCCAGCCACATTCACCACGGGTGCCGGTACTTCCAA: 57.8 a.u.
CCGGACACTAGGAAACACGCACAAAATTCTCAGGCA: 75 a.u.

Block 5
Target: ABI1, truncated, D143A, DHFR fusion (Arabidopsis thaliana)
Method: DHFR PCA, deep sequencing
Sample: yeast
Notes: methotrexate growth selection, single substitutions
Together with: (+)-ABA 0.032 µM
Relative to: wild-type fitted maximum
Direction: higher = stronger binding
Quantity: relative binding score
Starting sequence: PYL1, truncated, DHFR fusion (Arabidopsis thaliana); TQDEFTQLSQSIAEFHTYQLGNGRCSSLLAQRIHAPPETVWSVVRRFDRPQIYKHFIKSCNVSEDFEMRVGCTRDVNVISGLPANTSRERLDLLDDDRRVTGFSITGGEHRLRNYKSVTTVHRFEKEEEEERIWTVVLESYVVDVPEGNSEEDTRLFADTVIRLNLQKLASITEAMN; partner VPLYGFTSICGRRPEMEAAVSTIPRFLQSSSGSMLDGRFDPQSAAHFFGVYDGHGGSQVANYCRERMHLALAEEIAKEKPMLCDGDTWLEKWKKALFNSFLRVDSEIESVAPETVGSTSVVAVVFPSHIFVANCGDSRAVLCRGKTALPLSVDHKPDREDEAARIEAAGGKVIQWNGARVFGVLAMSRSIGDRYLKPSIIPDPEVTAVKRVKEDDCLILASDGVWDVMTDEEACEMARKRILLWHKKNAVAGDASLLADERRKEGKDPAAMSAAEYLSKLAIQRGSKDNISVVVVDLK
E109W: -1.83%
S87I: 50.8%
C72S: 21.7%
Q19W: 8.16%
F103R: -2.63%
T135L: -3.31%
K168L: -0.266%
G21E: 32.5%
S59N: 7.81%
E130G: 26.6%
F15I: -6.18%
D97K: 33.5%
L156N: -9.06%

Block 6
Target: Histone acetyltransferase KAT6A, both winged helices, GST fusion (KAT6A, Homo sapiens, UniProt Q92794, residues 1-181)
Method: protein binding microarray
Molecule type: double-stranded DNA, one strand shown
Sample: in vitro
Tested at: not given
Notes: 8-mer, flanks averaged, mean of 2 arrays, mostly near background
Relative to: not given
Direction: higher = stronger binding
Quantity: E-score
Residues (chain): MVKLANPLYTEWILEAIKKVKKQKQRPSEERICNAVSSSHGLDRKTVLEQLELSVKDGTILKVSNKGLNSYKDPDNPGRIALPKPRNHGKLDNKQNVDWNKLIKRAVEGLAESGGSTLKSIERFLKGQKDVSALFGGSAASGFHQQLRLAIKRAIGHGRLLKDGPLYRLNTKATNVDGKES
CCAGGATA: -0.183
CTCTTGTC: -0.144
ACTGGGAG: -0.0725
CGCTGGTA: 0.0439
GCTTCGAA: -0.13
CTCATCGC: 0.0718
ATCGCTAC: 0.154
TGCAACAA: -0.15
AACCCCAA: -0.276
CGTTGCTC: 0.151
GGTTAGTA: 0.0169
CACCTAAA: -0.204
CTCTTAAG: -0.0893
ACGACACC: -0.0269
AAGCGGTG: 0.12
CACAGTCC: 0.0511
AGGGCTCC: -0.0727
ATTTGCAC: -0.17
GGGAGATA: -0.12
ACAGGGGC: -0.101
CCTCCCAC: -0.0696
GGTTCGAC: -0.0882
CATTAGTC: -0.179

Single results of other studies
PhoQ, residues 284 288 289 292 302 303 QWQEDG — fold induction (PhoP, residues 12 14 15 18 19 GQALL (Escherichia coli, UniProt P23836); Sort-seq, item: YFP reporter; E. coli; PhoQ-PhoP variant library, together with: 10 µM Mg2+; relative to: high Mg2+ state, higher = stronger signaling): 17.3
